Results from different studies.
Numbered parts are unrelated; each lists some results of a single study.

Block 1
Target: Interferon regulatory factor 3, full length, phosphomimetic (IRF3, Homo sapiens, UniProt Q14653, residues 1-427, S386D/S396D/S398D/S402D/T404D/S405D)
Chain of UniProt Q14653 (whole entry, unmodified, looked up): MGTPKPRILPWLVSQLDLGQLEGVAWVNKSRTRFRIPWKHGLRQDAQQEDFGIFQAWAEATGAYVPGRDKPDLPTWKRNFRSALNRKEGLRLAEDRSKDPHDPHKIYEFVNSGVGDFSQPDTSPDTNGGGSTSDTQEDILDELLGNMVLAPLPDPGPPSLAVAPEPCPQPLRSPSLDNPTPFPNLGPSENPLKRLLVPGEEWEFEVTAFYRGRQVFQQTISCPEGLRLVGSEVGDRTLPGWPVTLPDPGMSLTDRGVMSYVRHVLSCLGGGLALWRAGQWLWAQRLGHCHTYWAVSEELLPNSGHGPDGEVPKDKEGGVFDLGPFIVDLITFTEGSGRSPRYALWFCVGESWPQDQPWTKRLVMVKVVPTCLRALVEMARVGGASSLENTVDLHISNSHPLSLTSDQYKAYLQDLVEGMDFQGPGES
Technique: protein-binding microarray
Form: double-stranded DNA, one strand shown
Medium: in vitro
Concentration: 2540 nM top
Notes: 60-bp whole probe
Together with: salmon DNA 0.4 mg/ml
Reference: random background probes
Direction: higher = stronger binding
Measurement: fitted relative affinity
All sequences stand within: GCCTAGCAC … GTCTTGATTCGCTTGACGCTGCTG
GACGGACTGCTACTGCTGCCGTGCTAG: -0.967 z-score
GATGAACTGAGTTTCGAGACGTGCTAG: 1.11 z-score
TTAGGTATCGGTTTCAGTTAGTGCTAG: 6.61 z-score
GACGGTTTCGACTACCGGGACGTGCTA: 2.75 z-score
TTAGGTATAGACTATCGGTTAGTGCTA: -0.374 z-score
GAAGGACTGGGGTATCGGGACGTGCTA: -0.753 z-score
CATTGCCTATTTTTCCCCTGGTGCTAG: 1.14 z-score
TTAGCTTTCAGTTTCGATTAGTGCTAG: 6.1 z-score
GAAGGACTGCTACTGCTGACGTGCTAG: -0.876 z-score
TCATGTCTGGGATTTTGACTGTGCTAG: -0.339 z-score
TTAGATCTCAGTCGCGATTAGTGCTAG: -0.105 z-score
TCAAGTTTCTCAACCACACTGTGCTAG: 1.62 z-score
TTAGGTATCCCTTTCCTTTAGTGCTAG: 7.48 z-score
TCACGTAAGCAAAAATGACTGTGCTAG: -0.35 z-score
GACGGTATCCTTTTCCTTACGTGCTAG: 8.08 z-score
TTTGATTTCAGTTCCGATTAGTGCTAG: 3.87 z-score
TCACTTACCTCACTCGTACTGTGCTAG: 0.783 z-score
TTAGATTTCGGGTTTCGATTGGTGCTA: 2.65 z-score

Block 2
Target: PABPC1L2, full length, GST fusion (mouse, UniProt A0ABA7IW68)
Technique: RNAcompete
Form: RNA
Medium: in vitro
Concentration: 20 nM
Notes: 7-mer, probes averaged, single round
Reference: mean of 7-mers
Direction: higher = stronger binding
Measurement: 7-mer Z-score
Target sequence (chain): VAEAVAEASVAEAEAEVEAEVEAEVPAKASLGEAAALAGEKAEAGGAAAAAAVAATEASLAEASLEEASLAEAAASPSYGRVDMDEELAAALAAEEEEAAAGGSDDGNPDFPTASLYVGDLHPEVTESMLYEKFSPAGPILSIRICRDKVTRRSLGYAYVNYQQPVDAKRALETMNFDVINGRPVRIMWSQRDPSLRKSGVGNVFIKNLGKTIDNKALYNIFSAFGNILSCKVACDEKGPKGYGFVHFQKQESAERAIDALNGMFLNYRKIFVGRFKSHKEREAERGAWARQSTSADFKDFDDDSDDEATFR
CAGCUGA: -0.117
AAUCGAA: 0.593
CAUCGAA: 0.0533
AUCGACG: -0.00652
UUACAUG: -0.0264
CAGAGUU: -0.228
AUUUCGA: -0.213
CUCGUGG: -0.208
CCAUUUA: 0.289
AUAGCGA: -0.101
UAACCUC: -0.258
CAUUACG: -0.0826
GCACUCC: -0.228
AGAAUUG: -0.113
ACAUGCC: -0.139
CUAUGUG: -0.151
GCGCACA: -0.0192
CGGACAA: 0.32
ACGCCUA: -0.2
CCCAUGA: -0.277
CGAACUU: -0.226
UUGCCGC: -0.269
GGAGCGC: 0.0243
UUUAGCC: -0.0591
ACGUGUU: -0.306

Block 3
Target: RNA binding protein fox-1 homolog 2, RRM domain, GST-SBP tag (RBFOX2, Homo sapiens, UniProt O43251-10, residues 100-194)
Technique: RNA Bind-n-Seq
Form: RNA
Medium: in vitro
Concentration: 365 nM
Notes: natural RNA segment, single round, ends assumed
Reference: no-protein control
Direction: higher = stronger binding
Measurement: RBNS enrichment (R)
All sequences stand within: GGGAGUUCUACAGUCCGACGAUC … UGGAAUUCUCGGGUGCCAA
Residues (chain): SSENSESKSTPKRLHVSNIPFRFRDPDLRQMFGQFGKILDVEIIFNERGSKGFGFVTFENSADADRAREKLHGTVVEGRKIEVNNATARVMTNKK
CCAGAUUGGCCCAGCUGCUGAUAGGUGAUUUUUUUUGCCCAUGAAUCAUGUAUCUCUUAGAGAAGAAAAUUCUAUGCCCUACCACAUCACAAGAUCUCCUCCUCAGUGUC: 0.351
CAAAUCCUUUGGCCUGAGAACUAAUAUGUUAAUUGCCUUAAAUAAAUUAAUAGAAAUCUAGUCCGUUAAAAAGGGAUGUGUUUCCUGCACUCCCCCGGGGGCUGUGGGGA: 0.458
GACAGAUAGUUUCCAGAGUACGCCAUGUAUAGCAAAGAACCCUGCCAUAGUUUUGACUCAGCCCCAUGCAUCCUUUCCCUCUUUCCUGAAAACAACUAAUUUAAAUUUGC: 1.26
UAUUUUAAAGCAGAUUUCUUCAGAAGCUAUCAUGGUCCCAGGGACUAGGUAGAAUUUUUAAGUCUAACGUGAACUUUAGCUUUAUCAGACAUUUUUGUUACUAGUGCCUA: 0.502
UGUCAGAUGACUUGCACUUCUUAAAGAGAUUGCUUUAUAACACUAAGACAUCCUUUCUAAAGAUUCAAGUGGACUUGACUAAGCUGAGGGUCCACGAAAUAGAAUAUGAC: 0.261
UCACACCUUUCCUGCCUGCGCAAACCUAGCUGUACCUAGCUGUACACGUCCUUUAUUAGAGAUGACCGAGGGGAAGCAGCUGCUGUUUAGCUGACCCCCCACAUGAGAAG: 1.11
UUACCGUGUAAAUGAAUAUUUGUAUGAUUAAAUUAACACACACAAAAAAAAAAACCCCGCCUUUAUCUGUGUGCGUGUGAUUCUGUUGCAUCCUCGAGCUGCUGCCUGCA: 11.5
UAGACAUCUAAUAAAUUUUGCUUGGAAGUAUACUUCAGUUUUUCUUCUUGACAUUUAUCUUUAUAAAAAUUGUGUAUUUUAUUCCAACUUGUUAAACUAAGAGAAAAUGC: 1.19
GCCCUCACCCGCCCCACUCCCUCCUAACCUAGAGAUUGUUACAGAAGCUGAAAUUGCGUUCUAAGAGGUGAAGUGAUUUUUUUUCUGAAACUCACACAACUAGGAAGUGG: 0.333
UUGCCCACACCUCCUCCCAUUUGCUGGGGGAGCUUUGGCCAAUUCACUCCUUUCUAGGUCUUAGUUUUCCCAUGUACACAGGGUCCUCUAGUUGUGAAAAUCACUCAAGA: 0.277
CCAUAUAAAACAUUUAAAUAAUGCAGGUUAUUAUGAGCAAGUUAGCUUUGAGAACCCUCCUUUUAGUAUAUGAAAAAGCCUAAUGCGCAUUCAUGAGGUUGGAGAGACUA: 0.351
AUUUUAAAAAGACGUACAUAGAAACUUAGGCACUUUGCUAUUUCUUUUCUAAACUAUCAAAAACUCUAGCAGUUUGAAAAGCCUAAUAUUUAUUUGUAUGUCAGUAUUUU: 0.646

Block 4
Target: Histone acetyltransferase KAT6A, winged helix 2, GST fusion (KAT6A, Homo sapiens, UniProt Q92794, residues 85-181)
Technique: protein binding microarray
Form: double-stranded DNA, one strand shown
Medium: in vitro
Concentration: not given
Notes: 8-mer, flanks averaged, mean of 2 arrays, mostly near background
Reference: not given
Direction: higher = stronger binding
Measurement: E-score
Target sequence (chain): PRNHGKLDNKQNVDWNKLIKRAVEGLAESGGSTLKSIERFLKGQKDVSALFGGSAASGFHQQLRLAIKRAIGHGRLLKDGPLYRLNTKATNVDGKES
CGAAATTA: 0.0635
CCGCACTA: 0.19
CTCCGTTC: 0.0673
TAGTCGCA: -0.0314
AAAGGGCG: 0.115
AATATCTG: -0.169
TAATCGCA: 0.183
GTATAGAA: -0.117
GAAAGCAC: 0.126
AGTCTCGC: -0.17
ACTCTGGA: -0.0041
CATAAACC: 0.0231
ATCAGATG: 0.0887
ATGCTCTC: -0.0545
CTTACCAC: -0.0528
ACGTGCTC: -0.0686
CCTTGCAA: 0.00671
CGTTAACA: -0.0458
AAAGCTGC: -0.0188
GCAACGGA: 0.205
ATCGCAGC: 0.152

Block 5
Target: Ras GTPase-activating protein-binding protein 1, full length (G3BP1, Homo sapiens, UniProt Q13283)
Chain of UniProt Q13283 (whole entry, looked up): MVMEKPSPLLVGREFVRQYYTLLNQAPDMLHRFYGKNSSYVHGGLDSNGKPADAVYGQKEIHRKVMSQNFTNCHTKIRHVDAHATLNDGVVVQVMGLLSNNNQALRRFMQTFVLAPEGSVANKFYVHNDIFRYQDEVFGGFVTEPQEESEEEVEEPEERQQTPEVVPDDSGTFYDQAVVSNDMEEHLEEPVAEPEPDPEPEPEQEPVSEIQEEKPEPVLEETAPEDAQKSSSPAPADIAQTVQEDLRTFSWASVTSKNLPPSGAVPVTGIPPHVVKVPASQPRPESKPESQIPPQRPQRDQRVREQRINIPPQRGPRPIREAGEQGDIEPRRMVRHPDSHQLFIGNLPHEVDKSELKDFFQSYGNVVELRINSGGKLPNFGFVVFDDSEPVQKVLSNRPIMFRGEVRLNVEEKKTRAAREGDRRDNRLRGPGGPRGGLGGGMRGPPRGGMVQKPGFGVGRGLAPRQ
Technique: RNA Bind-n-Seq
Form: RNA
Medium: in vitro
Concentration: 200 nM
Notes: whole 134-nt RNA, ends assumed
Together with: 150 mM KCl
Reference: input library
Direction: higher = stronger binding
Measurement: log2 enrichment
All sequences stand within: GGGAGUUCUACAGUCCGACGAUC … UGGAAUUCUCGGGUGUCAAGG
AUUAUAGACUUGAUCAAAACACAGGAAAAGGCAACUCCCAGGAACUUUCCGCCACGAUUCCAGGAUGGAUAUUACAGCUGACAGCUUUUC: -0.279
GCAGGAAGUAAAAACAAAUGGAAAUGCUUCGGAUAGUGGCAGGGGUGGGGGUUGCUAAGGAAAGGGCGGGAUGGGAGUGGGUAAAGAGUU: 0.944
CUCAAGUCCUGUGCUACACAUCGUAUGUACCGAAUCGGAAGGGGAAGGAAGGGAAAGUAUUAUGUUACGCCGUUCGGAUCUGCACUUCCA: -0.179
UGGGAGGUGGAUUUUGUUUAUUUUUUUAGCUCAUUUCCAGGGGUGGGAAUUUUUUUUUAAUAUGUGUCAAGAAUAAAGUUGUUUUUGAAA: 0.101
UCAAGUCCUGUGCUACACAUCGUAUGUACCGAAUCGGAAAAAGGAAAGGUUUGGAAAGUAUUAUGUUACGCCGUUCGGAUCUGCACUUCC: -1.36
UCAAGUCCUGUGCUACACAUCGUAUGUACCGAAUCGGGGUUUGGUUUGGUUUGGGAAAGUAUUAUGUUACGCCGUUCGGAUCUGCACUUC: -0.417
CCUCAAGUCCUGUGCUACACAUCGUAUGUACCGAAUCGGGAGGGAGGGUGGGAAAGUAUUAUGUUACGCCGUUCGGAUCUGCACUUCCAG: 1.39
AGUCCUGUGCUACACAUCGUAUGUACCGAAUCGGUUUUUUUGGUUUUUUUGGUUUGGAAAGUAUUAUGUUACGCCGUUCGGAUCUGCACU: -1.33
UUUAAUGUCUGCGGCACAAUGCCUGUCUGUGGGACCAUCCUGGGAAAACCUGCUUCUGGCUGUGAGGCAGAAACCCAAACUGAAGAGCUC: 0.411
CCUCAAGUCCUGUGCUACACAUCGUAUGUACCGAAUCGGGAAGGGAAGGAAGGAAAGUAUUAUGUUACGCCGUUCGGAUCUGCACUUCCA: -0.466
GCAGGAAGUAAAAACAAAUGGAAAUGCUUCGGAUAGUGGCAGGGGUGGGGGUUGCUAAGGAAAGGGUAAAAUGGGAGUGGGUAAAGAGUU: 0.667
GUCCUGUGCUACACAUCGUAUGUACCGAAUCGGAAAAAAAGGUUUUUGGUUUUUUUGGAAAGUAUUAUGUUACGCCGUUCGGAUCUGCAC: -1.73
UCCUGUGCUACACAUCGUAUGUACCGAAUCGGGGAGGGGAAAAAAAGGGGUUUUUGGGGAAAGUAUUAUGUUACGCCGUUCGGAUCUGCA: 0.729
GGAGGAAGUAAAAACAAAUGGAAAUGCUUCGGAUAGUGGCAGGGGUGGGGGUUGCUAAGGAAAGGGUGGGAUGGGAGUGGGUAAAGAGUU: 0.866

Some of these lines once more (block 2):
CCAUUUA: 0.289
AUAGCGA: -0.101
UAACCUC: -0.258
CAUUACG: -0.0826
GCACUCC: -0.228
AGAAUUG: -0.113
ACAUGCC: -0.139
CUAUGUG: -0.151
GCGCACA: -0.0192
CGGACAA: 0.32
ACGCCUA: -0.2
CCCAUGA: -0.277
